Experimental data collected from several papers.
Parts stem from different laboratories: compare values within a part only. Values joined by “and” are separate records of one study, mostly repeats; a detail may differ.
Chain of UniProt O75417 (whole entry, unmodified, looked up): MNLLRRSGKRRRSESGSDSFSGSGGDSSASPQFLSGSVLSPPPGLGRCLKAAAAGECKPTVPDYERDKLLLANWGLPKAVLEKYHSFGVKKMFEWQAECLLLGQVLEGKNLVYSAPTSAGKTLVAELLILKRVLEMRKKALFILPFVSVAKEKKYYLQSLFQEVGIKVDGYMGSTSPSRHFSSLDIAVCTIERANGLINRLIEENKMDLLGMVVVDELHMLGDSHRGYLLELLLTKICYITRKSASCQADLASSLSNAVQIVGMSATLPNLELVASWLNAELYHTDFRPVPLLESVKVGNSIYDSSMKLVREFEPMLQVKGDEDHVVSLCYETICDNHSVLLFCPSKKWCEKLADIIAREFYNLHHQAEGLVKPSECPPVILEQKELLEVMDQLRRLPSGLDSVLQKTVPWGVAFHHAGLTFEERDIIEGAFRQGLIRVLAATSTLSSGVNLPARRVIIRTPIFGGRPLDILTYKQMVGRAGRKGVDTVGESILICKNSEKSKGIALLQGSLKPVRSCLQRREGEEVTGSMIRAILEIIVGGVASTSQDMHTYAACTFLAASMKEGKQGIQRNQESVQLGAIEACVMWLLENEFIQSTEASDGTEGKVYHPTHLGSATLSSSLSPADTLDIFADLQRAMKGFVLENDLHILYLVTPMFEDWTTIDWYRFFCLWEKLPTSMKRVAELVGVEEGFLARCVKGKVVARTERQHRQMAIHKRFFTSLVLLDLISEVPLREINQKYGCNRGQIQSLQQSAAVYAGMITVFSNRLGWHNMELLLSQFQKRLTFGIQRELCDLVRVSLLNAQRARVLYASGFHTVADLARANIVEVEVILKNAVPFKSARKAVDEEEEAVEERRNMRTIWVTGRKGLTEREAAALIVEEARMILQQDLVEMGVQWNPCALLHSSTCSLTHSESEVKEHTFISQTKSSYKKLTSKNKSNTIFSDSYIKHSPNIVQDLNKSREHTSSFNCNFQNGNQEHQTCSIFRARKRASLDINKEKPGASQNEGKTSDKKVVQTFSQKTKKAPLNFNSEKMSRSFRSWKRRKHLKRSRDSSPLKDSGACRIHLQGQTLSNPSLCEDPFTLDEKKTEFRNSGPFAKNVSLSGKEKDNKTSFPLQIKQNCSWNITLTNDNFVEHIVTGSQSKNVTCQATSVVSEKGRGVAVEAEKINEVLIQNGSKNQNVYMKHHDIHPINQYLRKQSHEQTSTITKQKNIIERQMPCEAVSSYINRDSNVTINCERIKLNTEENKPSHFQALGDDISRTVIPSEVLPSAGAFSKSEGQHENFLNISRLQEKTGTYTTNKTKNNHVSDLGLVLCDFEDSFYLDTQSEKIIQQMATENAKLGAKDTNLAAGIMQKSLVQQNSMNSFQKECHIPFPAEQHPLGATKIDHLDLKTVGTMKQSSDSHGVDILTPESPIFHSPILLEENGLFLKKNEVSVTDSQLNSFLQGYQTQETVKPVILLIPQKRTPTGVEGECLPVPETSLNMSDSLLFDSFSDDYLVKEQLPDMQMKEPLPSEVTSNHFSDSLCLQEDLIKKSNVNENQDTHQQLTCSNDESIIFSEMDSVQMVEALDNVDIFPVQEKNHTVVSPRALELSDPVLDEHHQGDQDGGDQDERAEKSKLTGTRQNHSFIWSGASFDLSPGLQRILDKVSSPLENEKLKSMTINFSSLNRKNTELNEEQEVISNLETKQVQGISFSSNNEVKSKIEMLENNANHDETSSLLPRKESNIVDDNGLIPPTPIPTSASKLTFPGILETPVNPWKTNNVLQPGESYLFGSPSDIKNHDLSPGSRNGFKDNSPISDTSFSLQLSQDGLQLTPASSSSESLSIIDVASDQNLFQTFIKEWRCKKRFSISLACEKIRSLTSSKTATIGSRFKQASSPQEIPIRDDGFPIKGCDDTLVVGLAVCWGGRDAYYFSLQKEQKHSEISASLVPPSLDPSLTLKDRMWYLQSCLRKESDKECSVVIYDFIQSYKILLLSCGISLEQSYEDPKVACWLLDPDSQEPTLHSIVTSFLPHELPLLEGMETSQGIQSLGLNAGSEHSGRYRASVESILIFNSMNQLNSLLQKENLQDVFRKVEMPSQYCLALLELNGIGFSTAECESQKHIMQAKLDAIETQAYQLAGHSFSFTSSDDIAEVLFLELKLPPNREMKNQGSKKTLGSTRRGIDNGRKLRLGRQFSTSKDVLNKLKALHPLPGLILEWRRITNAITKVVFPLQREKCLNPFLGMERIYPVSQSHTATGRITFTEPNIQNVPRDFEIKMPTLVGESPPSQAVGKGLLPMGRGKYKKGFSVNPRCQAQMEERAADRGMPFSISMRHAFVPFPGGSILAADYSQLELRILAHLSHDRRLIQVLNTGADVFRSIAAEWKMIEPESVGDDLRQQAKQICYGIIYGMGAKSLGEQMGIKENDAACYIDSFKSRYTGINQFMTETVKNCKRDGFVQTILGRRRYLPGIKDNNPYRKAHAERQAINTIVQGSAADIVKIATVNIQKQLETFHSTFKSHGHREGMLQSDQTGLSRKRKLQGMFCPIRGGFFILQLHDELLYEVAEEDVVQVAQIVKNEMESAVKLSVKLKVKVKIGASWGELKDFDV

Study 1
Compound: CC(C)n1cnc(-c2ccc(F)cc2)c1-c1ncc(C(=O)Nc2ccc(N3CCN(C)CC3)cc2)[nH]1
Technique: Phase 2a trial
Item: influenza like illness
Species: idiopathic pulmonary fibrosis patients
| dose | notes | patients with adverse events [%] |
| --- | --- | --- |
| 30 mg once daily | grade 1 maximum intensity | 0 |
| 60 mg once daily | grade 5 maximum intensity | 0 |
| 60 mg once daily | grade 2 maximum intensity | 0 |

Study 2
Species: human
Medium: microsomes or S9
Concentration: 2 µM
Time: 0.5 h
| Structure (SMILES) | remaining compound [%] |
| --- | --- |
| COC(=O)C1(c2ccccc2)CCN(C(=O)CCn2cncn2)CC1 | 75.7 |
| CSc1nc2ccccc2c(=O)n1-c1ccccc1 | 49.6 |
| CNNC(=O)c1cc(Cl)cc(C)c1NC(=O)c1cc(Br)nn1-c1ncccc1Cl | 48.8 |

Other studies, line by line
| Structure (SMILES) | tested on | test | system | conditions | scale | endpoint | result |
| --- | --- | --- | --- | --- | --- | --- | --- |
| O=C(NCc1ncc(C(F)(F)F)cc1Cl)c1ccc2c(c1)C1(CCS(=O)(=O)CC1)[C@@H](C1CC1)N2S(=O)(=O)c1ccc(F)cc1 | EGFR (Homo sapiens, UniProt P00533, A750P/del747-749) | cell-free assay, competition with immobilised ligand |  | 1 µM |  | remaining binding | 96% |
| CNC(=O)c1ccc(-c2cnn3ccc(C(=O)N(C)c4ccc(Cl)c(C(=O)OC)c4)cc23)cc1 | Cryptosporidium parvum | time-kill assay, luminescence | nanoluciferase-expressing | 0.081 µM, 0 h | reference: DMSO | remaining parasite growth | 90.1% and 91.2% and 99.4% and 91.4% and 103% and 90.3% and 98% and 97.4% |
| N[C@@H]1C[C@H]1c1ccccc1 | DNA polymerase theta, ATPase domain (POLQ, Homo sapiens, UniProt O75417) | inhibitor |  | 77 µM |  | remaining activity | 106% |
| O=C1CCC(N2Cc3c(ccc4c3OCC43CCN(Cc4ccccc4)CC3)C2=O)C(=O)N1 (stereo not shown) |  | metabolic stability | mouse, liver microsomes | 1 µM |  | scaled CLint | 4.72 L/h/kg |

For quick reference, copied from above (study 2):
| Structure (SMILES) | remaining compound [%] |
| --- | --- |
| CNNC(=O)c1cc(Cl)cc(C)c1NC(=O)c1cc(Br)nn1-c1ncccc1Cl | 48.8 |
